Results of several laboratories.
Every numbered part comes from another study and shows a few of its results, in no order.

Set 1
Target: RNA binding protein fox-1 homolog 2, RRM domain, GST-SBP tag (RBFOX2, Homo sapiens, UniProt O43251-10, residues 100-194)
Method: RNA Bind-n-Seq
Form: RNA
Medium: in vitro
Tested at: 365 nM
Notes: natural RNA segment, single round, ends assumed
Reference: no-protein control
Reading: higher = stronger binding
Endpoint: RBNS enrichment (R)
Constant ends, left off below: GGGAGUUCUACAGUCCGACGAUC … UGGAAUUCUCGGGUGCCAA
Residues (chain): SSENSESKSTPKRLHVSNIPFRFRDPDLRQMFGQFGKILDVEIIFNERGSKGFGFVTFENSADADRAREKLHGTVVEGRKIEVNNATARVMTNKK
AACAAUGUGUUUUCCACCCCACCCAAUGGGAUUGUUGAAGUAUUAACUGUGCUAAGAGAUCUUGACACAGCAGUAAGAUUCCAGUCUCCUUAUUACCAAACUCUCAACUC: 0.415
AUACGAUUUGCACCUUUCUGUUUUCCUGCAGUCAGGGUGGUGGCCUGCAGGGACCUGAGCUUUGCUACCCAACCAGAUUCCUCAUAGAGAUUCCUAAUCACUAGUUUCUU: 0.897
GUUUCAGUUGUCUUCAGAGACAAAUGUUACUUAAUCAGGAAUACAAAGUACAGAUUUUUUACAUUUUAGAGGAAGAGCACCUUGUAUAGUAAGUCUAAGUCAAGCAAGAC: 0.379
CGAGACACCCUUUAGUAGUUUGACAGCUUGCGUGUGUGCCGCCUAAUUAGAGCACAGGGAGCAGGGCAGCUGUUAUUCCUGUUUUACCAAGUCAAGGCUUAGGGAAGUUC: 0.711
CUCCUGCUGUAUUCAGGGGUGCCCCCUGGUGCUCAGCCUCUACCACCCCCAACCCUGCUCUUGGGUACCCAGAGGGGUCAUUUCUGAAUCCCUUGCCCAGAGGACAGACC: 0.562
AUUUACACAUUUGUGUUUUAUCUGAUUCUGUUCAGUUCUCAAGGAACUUUCACAAUGCUUUCCUAGGUAGGACCUGGCAGUUUGGCAGUGCCUUCAGUUUAGCAUUGCUA: 0.283
UUCUUUGAUUUAUUUUGCCAAUGGCAAAAAGACAAGACCUCGUUAGCACUGAGGAUUCUUGUUCCCUUGCCUUGCCCACUGCUCCCGACCUGAAGGCUGCCAACACUCCU: 0.452

Set 2
Target: Sal-like protein 4, full length isoform B (SALL4, Homo sapiens, UniProt Q9UJQ4-2, residues 1-616)
Method: universal PBM
Form: double-stranded DNA, one strand shown
Medium: in vitro
Tested at: not given
Notes: 8-mer, flanks averaged, mean of replicates
Reading: higher = stronger binding
Endpoint: E-score
Construct (chain): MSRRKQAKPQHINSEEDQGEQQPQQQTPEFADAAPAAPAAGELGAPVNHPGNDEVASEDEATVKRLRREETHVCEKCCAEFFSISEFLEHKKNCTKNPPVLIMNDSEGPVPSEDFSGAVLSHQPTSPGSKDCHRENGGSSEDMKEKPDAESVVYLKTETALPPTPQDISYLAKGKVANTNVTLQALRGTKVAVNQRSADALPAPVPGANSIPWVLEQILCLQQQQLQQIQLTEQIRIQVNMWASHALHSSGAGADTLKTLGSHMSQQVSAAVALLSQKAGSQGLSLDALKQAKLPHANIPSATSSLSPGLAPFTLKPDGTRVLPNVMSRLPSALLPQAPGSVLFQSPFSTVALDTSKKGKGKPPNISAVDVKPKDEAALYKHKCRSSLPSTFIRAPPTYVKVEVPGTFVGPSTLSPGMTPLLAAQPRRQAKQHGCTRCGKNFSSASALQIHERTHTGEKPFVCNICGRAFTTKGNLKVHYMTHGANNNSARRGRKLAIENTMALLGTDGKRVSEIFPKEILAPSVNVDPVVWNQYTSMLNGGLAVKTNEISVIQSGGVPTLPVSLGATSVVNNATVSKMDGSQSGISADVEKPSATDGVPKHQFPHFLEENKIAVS
CGCCGAAG: -0.305
CATTCTGG: -0.0611
CTCAATGA: -0.0184
ACTCTTCT: -0.0177
CTAGGTGC: -0.206
ATGTGGCA: -0.0762
CGACTCAA: -0.0702

Set 3
Target: Histone acetyltransferase KAT6A, winged helix 2, GST fusion (KAT6A, Homo sapiens, UniProt Q92794, residues 85-181)
Method: protein binding microarray
Form: double-stranded DNA, one strand shown
Medium: in vitro
Tested at: not given
Notes: 8-mer, flanks averaged, mean of 2 arrays, mostly near background
Reference: not given
Reading: higher = stronger binding
Endpoint: E-score
Construct (chain): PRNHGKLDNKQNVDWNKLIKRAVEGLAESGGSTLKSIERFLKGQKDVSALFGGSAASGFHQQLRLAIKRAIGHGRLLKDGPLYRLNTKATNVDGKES
AAGGAAAC: 0.00059
CGTATAGC: 0.113
GTGATTAA: -0.159
TATGCGCA: -0.0366
CATGGACC: -0.116
GATGAGGC: -0.137
AGGGTTGC: 0.0323

Further values, each from its own experiment
PhoQ, residues 284 288 289 292 302 303 HSYLQF  fold induction (PhoP, residues 12 14 15 18 19 NHFIF (Escherichia coli, UniProt P23836); Sort-seq, measured: YFP reporter; E. coli; PhoQ-PhoP variant library, together with: 10 µM Mg2+; reference: high Mg2+ state, higher = stronger signaling): 2.34

A few entries again (set 1):
CUCCUGCUGUAUUCAGGGGUGCCCCCUGGUGCUCAGCCUCUACCACCCCCAACCCUGCUCUUGGGUACCCAGAGGGGUCAUUUCUGAAUCCCUUGCCCAGAGGACAGACC: 0.562
GUUUCAGUUGUCUUCAGAGACAAAUGUUACUUAAUCAGGAAUACAAAGUACAGAUUUUUUACAUUUUAGAGGAAGAGCACCUUGUAUAGUAAGUCUAAGUCAAGCAAGAC: 0.379
